Published values of several laboratories.
A part holds a random share of what one study measured.

Study 1 — technique: protein-binding microarray; molecule type: double-stranded DNA, one strand shown; medium: in vitro; tested at: 0.8 µM; setting: whole 60-bp probe, no competitor; direction: higher = stronger binding; shared flanks, not repeated: … GTCTTGATTCGCTTGACGCTGCTG
Target: Centromere-binding protein 1, full length, N-terminal tag (CBF1, Saccharomyces cerevisiae, UniProt P17106, residues 1-351)
Chain of UniProt P17106 (whole entry, looked up): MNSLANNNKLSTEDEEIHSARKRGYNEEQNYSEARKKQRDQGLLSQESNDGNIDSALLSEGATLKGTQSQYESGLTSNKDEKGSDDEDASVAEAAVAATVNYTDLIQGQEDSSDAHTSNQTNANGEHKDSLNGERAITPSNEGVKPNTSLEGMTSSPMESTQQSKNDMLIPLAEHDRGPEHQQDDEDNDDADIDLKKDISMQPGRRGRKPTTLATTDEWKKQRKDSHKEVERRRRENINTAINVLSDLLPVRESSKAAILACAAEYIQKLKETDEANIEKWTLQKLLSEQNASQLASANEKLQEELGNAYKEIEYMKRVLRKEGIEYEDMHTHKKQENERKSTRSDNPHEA
Oligonucleotide | fluorescence intensity [a.u.]
CTAAATAAGGTATGAAACATGACAGATGGTTAATTC | 531
GAAGATGCCCACACGCACGTTTGGATTATTACCTAG | 545
GAAAAATGGTGGGGTGTGATGGCGCAGACTGTGTAG | 527
GAAAGCTACCAATAAAACGTGATAGATACTAACTAG | 1230
CTAACCAGCAAATTTAACATCATGCCGGCATTGTTC | 551
GAATCAAATTTCGAAAAGGTGATGACGCCCTATTAG | 504
CTAAATAAAATGAGAAACGTGCTTCCAGTTCAATTC | 691
CTAAAGTATTTCACCCACGTATGGCAGGCAAGATTC | 492
GAACATCGCAAAAATCAGCTGAAAAATTTTGAATAG | 531
CTACCAAAACGGATCATCACCACCATAATGATTTTC | 495
CTAGTTATCGTATGTCACCTGGCACTCATTAGTTTC | 843
GAACTATTGCGAAGTTTGGTGTCACATGGTTTGTAG | 5660
CTAAAATGTGAAGTTGATGTCACTTCATACTAATTC | 534
GAAATATATCATGCACACATCAGGTAGAAGATATAG | 696
CTAATGTACAATGAGAACGTGTAACGATCCAATTTC | 552
CCTAACTACTATACCCATGCGCAATAGCTTCGTACA | 523

Study 2 — technique: protein-binding microarray; molecule type: double-stranded DNA, one strand shown; medium: in vitro; tested at: 250 nM; setting: 60-bp whole probe; together with: salmon DNA 0.4 mg/ml; relative to: random background probes; direction: higher = stronger binding; shared flanks, not repeated: GCCTAGCAC … GTCTTGATTCGCTTGACGCTGCTG
Target: Interferon regulatory factor 5, full length, phosphomimetic (IRF5, Homo sapiens, UniProt Q13568-2, residues 1-514, K96S/S451D/S453D/S456D/S462D)
Oligonucleotide | log fluorescence [z-score]
AGAAACTTGTGTTTGTCCCTGTGCTAG | 1.43
GACGGTTTCGGACTGGGGCCGTGCTAG | 3.57
AGTCGTGAGCCGCACAGTGGGTGCTAG | -0.747
TTAGATCTCCTACTGCTTTAGTGCTAG | -0.000258
TCAATTGTGGATCTTGCACTGTGCTAG | 0.093
TTAGGTTTCCTACTGCTGTAGTGCTAG | 0.43
TTAGATTTCGGGTATCGCTTAGTGCTA | 6.07
GACGGTCTCGGCCTCGGGACGTGCTAG | -0.406
TTAGGCCTGGACTTTCGGTTAGTGCTA | 9.18
TTAGATCTCAGACTGGATGAGTGCTAG | -0.251
TTAGGTTACGACTTTCGGTTAGTGCTA | 9.63
GACGATCTCAGAGTGGAGACGTGCTAG | -0.146
GATGGTTTCGGTCTCGGGACGTGCTAG | 10.1
TCAAGCTTGGGTCTGTGACTGTGCTAG | -0.533
TTAGAACTGGGGTAGCGATTAGTGCTA | -0.182
CTCATGTTACATTTATATCTGTGCTAG | 0.692
CTTCATGTGCCTTTATATACGTGCTAG | 0.521

Study 3 — technique: RNA Bind-n-Seq; molecule type: RNA; medium: in vitro; tested at: 365 nM; relative to: no-protein control; direction: higher = stronger binding
Target: RNA binding protein fox-1 homolog 2, RRM domain, GST-SBP tag (RBFOX2, Homo sapiens, UniProt O43251-10, residues 100-194)
Setting: natural RNA segment, single round, ends assumed
Shared flanks, not repeated: GGGAGUUCUACAGUCCGACGAUC … UGGAAUUCUCGGGUGCCAA
Target sequence (chain): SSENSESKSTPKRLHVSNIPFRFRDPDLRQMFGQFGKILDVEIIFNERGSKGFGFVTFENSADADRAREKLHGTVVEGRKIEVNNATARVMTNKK
Oligonucleotide | RBNS enrichment (R)
GGAACACAGCCGCUCCCCUCUGCUCUGCACCCCACUCGUGGGGGAACACAGCCGCUCCCCUCUGCUCUGCACCCCACUCGUGGGGGAACACAGCUGCAGCCCACCGCGGA | 0.237
GCCCCUCCUGAAAGGAUGGAAGGAAACCACCUCCAUCGGUACUCCAAAGUUCUUGAAGCCCACUUGGGAGACCCGAAACCUCGGCCCCUGCCAGCCUGUCCACAUUUGUC | 0.456
AGGCAUACAACCUAGAAAAUGUUAAUCACAUCACUGUUUCUUCUGUGGAAGCAAAGAGUUGUGGAGCGGUAGCCAUUUUAGUUACUGGGGUGGGAGGGAGGAACAAAGGA | 0.524
CUCAGCCUCAGUGUCCCGAGGGCCCCGAAGCAUUCCAUUCUCGUGGAGGAGUUUCCUUGCUGAGAUUUCAAAUAGUCCUCCCCACCUCAACUGUCACCACUGCUAAGGGA | 0.311
CUGGGCUCUUACAGAGCCUCCAUGAGUCAAGCCCCCUCCCCACACCUGGACUCCAGAAUUCACCCUCUCCCCUGCAGUCUGGGUUCCCAGACUGAGUCCUCUCCCCAAAU | 0.411
CGUACCUUGGAUAAGGGGCCUCACUUGAACCCAUCUUGAAUACCCUUUGCCAGGUGCUUAUUUAAGUACAAAUCCUUUUCAAAGGACUCUAGUGUUCAGUUGUUGAUGUG | 0.227
CAUUUUAAAGCCUGCUGAUAACUGAGGAGGGCUAAUGAGAUAGGUUUGCUCGUCUGUAAUAGUUAUGUAUGAAGGACUCUUAAUUGCAACUGAAAAGGUCGUGUAUAGGU | 1.25
AACGGUUAUGAUUGCCAGCGUUUUGGAUGGCAUUAAACUGGAGUUCAGGGUUGAACAUGUCCUGCUCCUCAUCCCAUAAGUACCUUGGACUUUCAGGAGCCUCAGGAUCA | 0.18
ACCCACAGAGGUCUGUGCCAGGUGCGCUUCUGCAGGUGGAGCCAAGCUCUCCCUGAGGCCAGAGGCGGGGCCUGGGCCGGGAGCCCAGGGGAAGGCCAGGCUGGACCCCG | 0.331
UAAGAGUUUAUGUGAAGUAUACAUCUUUGUACUUGGAAGAGUCUAAGUUGUUUAUAUUUGGUAAAAGGUUCAUUUGUCCCUUUUAGCUCUUAAAUAUCUCGAUGUAUUUA | 1.67
UUUAGGAAUUGGGUCUUUUGUCCAAGUGACUUCGGUCUUAAGAAGAAAUAGUGUUGGGAGGGAACCUGUCUAGUAACAGAGCUAGCAAAUGUCCAGGCUGGUGAAGAUCC | 0.535
GCCUGAACCGGUGUGUAUUUGGGGAUCUGGAUGUGUAUGGCCACGGUGUGGCAGCUUUUGGAUUUUUUUCCUCCGGGGAGCAUUGACUGUGUGGACAUUGUUUGAGGAGC | 0.657

Study 4 — technique: RNA Bind-n-Seq; molecule type: RNA; medium: in vitro; tested at: 1 µM; setting: whole 134-nt RNA, ends assumed; together with: 150 mM KCl; relative to: input library; direction: higher = stronger binding
Target: Ras GTPase-activating protein-binding protein 1, RRM domain (G3BP1, Homo sapiens, UniProt Q13283)
Chain of UniProt Q13283 (whole entry, looked up): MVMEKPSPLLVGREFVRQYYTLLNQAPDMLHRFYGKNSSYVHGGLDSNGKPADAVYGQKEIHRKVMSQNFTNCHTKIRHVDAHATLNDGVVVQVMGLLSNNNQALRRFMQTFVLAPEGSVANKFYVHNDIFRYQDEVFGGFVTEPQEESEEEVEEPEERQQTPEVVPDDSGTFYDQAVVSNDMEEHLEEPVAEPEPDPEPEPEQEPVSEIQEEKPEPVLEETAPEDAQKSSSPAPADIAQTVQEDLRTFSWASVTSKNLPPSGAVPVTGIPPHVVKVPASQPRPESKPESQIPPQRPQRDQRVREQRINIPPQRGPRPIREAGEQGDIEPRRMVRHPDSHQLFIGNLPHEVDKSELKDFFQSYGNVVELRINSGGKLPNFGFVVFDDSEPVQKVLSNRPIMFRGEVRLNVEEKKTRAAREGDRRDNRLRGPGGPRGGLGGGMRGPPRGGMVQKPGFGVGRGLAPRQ
Shared flanks, not repeated: GGGAGUUCUACAGUCCGACGAUC … UGGAAUUCUCGGGUGUCAAGG
Oligonucleotide | log2 enrichment
UCCAAACCCAAGAAAAAGAAAUCUUUUUCCAAGGAGGAGUUGAUGAGUAGCGAUCUUGAAGAGACCGCUGGCAGCACCAGUAUUCCCAAG | -0.214
GCAGGAAGUAAAAACAAAUGGAAAUGCUUCGGAUAGUGGCAGAAAUGGGGGUUGCUAAGGAAAGGGUGGGAUGGGAGUGGGUAAAGAGUU | 0.765
UUAAGGGAAUCUAUUGCUGAACACAAACCUCAUAUUGACAAACUACUAAAGAUAGGCCCACAACUAAAGGAAUUAAACCCUGAGGAAGGG | -0.151
ACCAUGCAGGUGGGCAUCUUUGGGAAGUGGGGCAAGGGGGGGAUAGGGAGGGGGGUAACACAUUGGGAACAGGUGGUCCCAGGUCGUUUC | 0.927
GUCCUGUGCUACACAUCGUAUGUACCGAAUCGGGGCCCCCGGCCCCCGGCCCCCGGGGAAAGUAUUAUGUUACGCCGUUCGGAUCUGCAC | -0.551
UGGGAGGUGGAUUUUGUUUAUUUUUUUAGCUCAUUUCCAGGGGUGGGAAUUUUUUUUUAAUAUGUGUCAUGAAUAAAGUUGUUUUGGAAA | 1.08
CCUGUGCUACACAUCGUAUGUACCGAAUCGGGUUUUUGGGAAAAAAAGGGUUUUUUUGGGAAAGUAUUAUGUUACGCCGUUCGGAUCUGC | -0.268
GUCCUGUGCUACACAUCGUAUGUACCGAAUCGGUUUUUUUGGUUUUUUUGGUUUUUGGAAAGUAUUAUGUUACGCCGUUCGGAUCUGCAC | -0.201
UAACUUUAGAGGAGGAUCUGAUGGAUAUGGCAGUGGACGUGGAUUUGGGGAUGGCUAUAAUGGGUAUGGAGGAGGACCUGGAGGUGGCCA | -0.164
UCAAGUCCUGUGCUACACAUCGUAUGUACCGAAUCGGGGUGGGGUGGGGUGGGGAAAGUAUUAUGUUACGCCGUUCGGAUCUGCACUUCC | 0.0648
CAACUUUAGAGGAGGAUCUGAUGGAUAUGGCAGUGGACGUGGAUUUGGGGAUGGCUAUAAUGGGUAUGGAGGAGGACCUGGAGGUGGCAA | -0.738
AGUCCUGUGCUACACAUCGUAUGUACCGAAUCGGGUGGGAAAAAGGGAAAAAAAGGGAAAGUAUUAUGUUACGCCGUUCGGAUCUGCACU | 0.477
AAGUCCUGUGCUACACAUCGUAUGUACCGAAUCGGGCCCCGGGCCCCGGGCCCCGGGAAAGUAUUAUGUUACGCCGUUCGGAUCUGCACU | -0.994
UCCUGUGCUACACAUCGUAUGUACCGAAUCGGUUUUUUGGGUUUUUUGGGGUUUUUUGGGAAAGUAUUAUGUUACGCCGUUCGGAUCUGC | -0.102

Repeated from above (study 1):
Oligonucleotide | fluorescence intensity [a.u.]
CTAAAATGTGAAGTTGATGTCACTTCATACTAATTC | 534
CTAAATAAGGTATGAAACATGACAGATGGTTAATTC | 531
GAAATATATCATGCACACATCAGGTAGAAGATATAG | 696
CTAGTTATCGTATGTCACCTGGCACTCATTAGTTTC | 843
GAATCAAATTTCGAAAAGGTGATGACGCCCTATTAG | 504
GAACATCGCAAAAATCAGCTGAAAAATTTTGAATAG | 531
